# Measurements of several laboratories.
# Each numbered part is a random draw from the data of one study; scales do not carry over between parts. Changes are numbered by the printed parent chain.
# Chain of UniProt P36897 (whole entry, looked up): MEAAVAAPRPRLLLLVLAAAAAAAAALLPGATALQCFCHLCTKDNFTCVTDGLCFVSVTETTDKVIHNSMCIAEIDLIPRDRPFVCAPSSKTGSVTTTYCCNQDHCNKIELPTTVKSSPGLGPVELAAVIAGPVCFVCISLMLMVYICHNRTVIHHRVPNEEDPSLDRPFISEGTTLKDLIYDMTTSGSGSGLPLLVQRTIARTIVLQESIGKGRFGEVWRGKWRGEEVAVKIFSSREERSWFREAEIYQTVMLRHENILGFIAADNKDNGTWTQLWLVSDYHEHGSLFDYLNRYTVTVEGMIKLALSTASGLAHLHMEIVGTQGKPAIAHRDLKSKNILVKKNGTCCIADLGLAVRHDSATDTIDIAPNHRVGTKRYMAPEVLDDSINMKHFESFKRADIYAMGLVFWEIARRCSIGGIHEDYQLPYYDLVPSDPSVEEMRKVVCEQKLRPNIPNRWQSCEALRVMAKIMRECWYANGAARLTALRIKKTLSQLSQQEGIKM

# Study 1
# Target: tungstate, free oxyanion
# Method: microfluidic competitive inhibition
# Sample: in vitro, cell-free expressed
# Tested at: not given
# Setting: derived from inhibition constants, unchanged parent 2230 nM
# Reading: lower = stronger binding
# Starting sequence: PafA, mature enzyme, eGFP fusion (Elizabethkingia meningoseptica, UniProt Q9KJX5); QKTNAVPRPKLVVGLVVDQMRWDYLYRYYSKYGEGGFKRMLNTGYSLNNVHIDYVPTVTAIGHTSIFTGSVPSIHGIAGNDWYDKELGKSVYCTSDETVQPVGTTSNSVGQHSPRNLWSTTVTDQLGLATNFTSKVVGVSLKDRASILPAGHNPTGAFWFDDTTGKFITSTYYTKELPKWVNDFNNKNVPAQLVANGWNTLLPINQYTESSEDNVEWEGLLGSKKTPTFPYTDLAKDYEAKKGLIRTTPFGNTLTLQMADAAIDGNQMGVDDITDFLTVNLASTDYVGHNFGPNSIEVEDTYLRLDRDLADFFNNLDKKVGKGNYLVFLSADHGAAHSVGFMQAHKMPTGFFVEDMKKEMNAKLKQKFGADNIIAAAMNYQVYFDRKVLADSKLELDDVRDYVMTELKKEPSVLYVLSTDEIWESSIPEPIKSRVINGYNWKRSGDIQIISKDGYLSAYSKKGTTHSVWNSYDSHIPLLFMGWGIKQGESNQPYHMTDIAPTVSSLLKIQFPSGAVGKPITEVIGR
Change,oxyanion analog dissociation constant [nM]
G292V,2100
F352V,2230
I436V,2110
A376V,1900
Q111G,1870
Q192G,1990
K38V,2510
G14A,2830

# Study 2
# Target: UDP-N-acetylglucosamine--peptide N-acetylglucosaminyltransferase 110 kDa subunit (OGT, Homo sapiens, UniProt O15294)
# Read-out: binding
# Method: phage display NGS
# Molecule type: peptide
# Tested at: concentration not given
# Baseline: input library
# Target sequence (O15294 1-1046): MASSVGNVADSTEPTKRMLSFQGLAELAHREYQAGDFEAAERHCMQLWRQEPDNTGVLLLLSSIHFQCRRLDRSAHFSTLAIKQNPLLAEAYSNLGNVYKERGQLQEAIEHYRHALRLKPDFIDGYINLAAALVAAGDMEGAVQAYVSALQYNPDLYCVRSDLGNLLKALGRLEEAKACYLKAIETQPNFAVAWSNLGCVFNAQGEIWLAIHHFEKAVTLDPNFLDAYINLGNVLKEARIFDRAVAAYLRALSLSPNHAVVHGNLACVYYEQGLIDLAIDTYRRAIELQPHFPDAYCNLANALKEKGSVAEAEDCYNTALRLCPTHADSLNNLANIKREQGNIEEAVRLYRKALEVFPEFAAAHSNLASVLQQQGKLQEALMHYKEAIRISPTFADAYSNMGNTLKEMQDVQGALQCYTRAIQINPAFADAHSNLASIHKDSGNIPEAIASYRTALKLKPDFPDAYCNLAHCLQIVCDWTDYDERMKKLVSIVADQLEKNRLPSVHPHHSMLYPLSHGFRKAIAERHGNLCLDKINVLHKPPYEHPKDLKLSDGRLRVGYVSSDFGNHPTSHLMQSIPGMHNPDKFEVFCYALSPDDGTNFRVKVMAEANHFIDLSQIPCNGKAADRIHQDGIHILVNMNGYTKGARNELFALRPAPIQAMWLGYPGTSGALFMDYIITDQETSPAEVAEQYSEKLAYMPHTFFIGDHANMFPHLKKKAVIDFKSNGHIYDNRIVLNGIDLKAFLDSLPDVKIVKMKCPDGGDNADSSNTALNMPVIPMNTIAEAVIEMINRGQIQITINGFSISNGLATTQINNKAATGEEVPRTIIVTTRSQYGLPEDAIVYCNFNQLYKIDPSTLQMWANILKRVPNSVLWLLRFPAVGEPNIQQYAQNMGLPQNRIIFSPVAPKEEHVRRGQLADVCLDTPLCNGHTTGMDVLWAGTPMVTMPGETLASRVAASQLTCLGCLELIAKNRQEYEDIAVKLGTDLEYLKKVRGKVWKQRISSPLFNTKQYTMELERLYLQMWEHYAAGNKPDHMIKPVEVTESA
Sequence,enrichment fold change
TSATSYLPYYTIYPG,1.79
VTNYHPSYHHLSHYA,4.05
HLSQDHHPKRQKHTH,4.94
YATPWTPQYQIMYN,22.2
HRVHTVETHYISHIV,2.43
TMYEPMYQIKVIAHG,19.3
VPWQHVHTAHNRWHS,2.95
ASQYDFMPAYRIDVG,9.3

# Study 3
# Target: CCNA2, cyclin fold, Cln2 fusion (human)
# Method: yeast growth competition, sequencing
# Sample: yeast
# Setting: strong parent motif
# Baseline: not given
# Reading: higher = stronger binding
# Starting sequence: viral docking peptide; YKVKRRLVFGADD
Change,normalised enrichment score
AKVKRRLVFGADD [Y1A],6.65
YKVKRRLVFIADD [G10I],5.68
YKVKRRLVFGEDD [A11E],6.36
YKVKRRLMFGADD [V8M],6.75
YKVKRRLVVGADD [F9V],1.04
YKVKRRLFFGADD [V8F],6.31
YKVKRRLVFGAGD [D12G],6.39
YKVKRRLVFGTDD [A11T],6.7

# Single results of other studies
Compound,target,read-out,mode,tested at,baseline,quantity,result
N/C(=N\[N+](=O)[O-])N/N=C\c1ccc(-c2cccc([N+](=O)[O-])c2)o1,"TGF-beta receptor type-1 (TGFBR1, Homo sapiens, UniProt P36897)",enzyme activity,inhibitor,0.5 µM,control,remaining activity,96.6%

# Excerpt of the above (study 1):
Change,oxyanion analog dissociation constant [nM]
A376V,1900
I436V,2110
G292V,2100
